Experimental data of several laboratories.
Lines come from different studies, so protocols differ.

CC(C)(C)c1ccc(C(O)CCCN2CCC(C(O)(c3ccccc3)c3ccccc3)CC2)cc1 (stereo not shown) — inhibition (Replicase polyprotein 1ab, main protease (rep, Severe acute respiratory syndrome coronavirus 2, UniProt P0DTD1); reporter gene (Gaussia luciferase), inhibitor; 20 µM): -6.75%
CCCCN(C)CCNC(=O)c1cc(-c2ccc(Cl)s2)nc2ccccc12 — maximum response (SARS-CoV-2; cytopathic effect; USA_WA1/2020; retest, 8-point, duplicates): 41%
COc1ccc([C@H](Cc2ccncc2)c2ccccc2)cc1OC1CCCC1 — EC50 (SARS-CoV-2; viral replication, GFP plate reader screen; BetaCov/Belgium/GHB-03021/2020; cell-based): > 100 µM
COc1ccc(/C=C/c2cc(O)cc(O)c2)cc1O — Kd (Spike glycoprotein (Severe acute respiratory syndrome coronavirus 2, UniProt P0DTC2); binding, biolayer interferometry): 58.6 µM
CNC(=O)[C@@H](NC(=O)[C@H](CC(C)C)[C@H](O)C(=O)NO)C(C)(C)C — time to death (Daboia russelii; North population, mouse; 120 µg, venom preincubated, observed to 24 h): > 24 h
O=C(NCC(c1cccnc1)N1CCOCC1)c1n[nH]c2c1CCCC2 (stereo not shown) — remaining activity (Lassa mammarenavirus; viral replication; Huh-7; 10 µM, 72 h): 38%
CCN1CCN(c2cc(C)c3cc(NC(=O)c4cccc(Cl)c4)ccc3n2)CC1 — maximum response (SARS-CoV-2; cytopathic effect; USA_WA1/2020; round 1, 5-point): 94.9%
Nc1ncnc2c([C@@H]3N[C@H](CO)[C@@H](O)[C@H]3O)c[nH]c12 — inhibition (Middle East respiratory syndrome-related coronavirus; viral replication; Vero C1008, Jordan N3; 25 µM): 31.4%
O=C1NCCCOc2cccc(c2)C2c3ccc(cc3CCN2C(=O)c2ccc(C(=O)N3CCOCC3)cc2)Oc2ccc(O)c1c2 (stereo not shown) — remaining activity (Lassa mammarenavirus; viral replication; Huh-7; 10 µM, 72 h): 39%
CC[C@H](C)[C@H](NC(=O)[C@H](CC(C)C)NC(=O)[C@H](Cc1c[nH]c2ccccc12)NC(=O)[C@H](CCC(N)=O)NC(=O)[C@@H](NC(=O)[C@H](Cc1ccccc1)NC(=O)[C@H](C)NC(=O)[C@H](CCCCNC(=O)COCCOCCNC(=O)COCCOCCNC(=O)CC[C@H](NC(=O)CCCCCCCCCCCCCCCCCCC(=O)O)C(=O)O)NC(=O)[C@H](CCC(N)=O)NC(=O)[C@H](C)NC(=O)[C@@H](NC(=O)[C@H](CCCCN)NC(=O)[C@H](CC(=O)O)NC(=O)[C@H](CC(C)C)NC(=O)C(C)(C)NC(=O)[C@@H](NC(=O)[C@H](CO)NC(=O)[C@H](Cc1ccc(O)cc1)NC(=O)[C@H](CC(=O)O)NC(=O)[C@H](CO)NC(=O)[C@@H](NC(=O)[C@H](Cc1ccccc1)NC(=O)[C@@H](NC(=O)CNC(=O)[C@H](CCC(=O)O)NC(=O)C(C)(C)NC(=O)[C@@H](N)Cc1ccc(O)cc1)[C@@H](C)O)[C@@H](C)O)[C@@H](C)CC)[C@@H](C)CC)C(C)C)C(=O)N[C@@H](C)C(=O)NCC(=O)NCC(=O)N1CCC[C@H]1C(=O)N[C@@H](CO)C(=O)N[C@@H](CO)C(=O)NCC(=O)N[C@@H](C)C(=O)N1CCC[C@H]1C(=O)N1CCC[C@H]1C(=O)N1CCC[C@H]1C(=O)N[C@@H](CO)C(N)=O — subjects with adverse event (item: treatment-emergent application site reaction; healthy subjects; 1.5 mg, multiple ascending dose): 0%
Cn1cnc(Cn2c(=O)[nH]/c(=N\c3cc4cn(C)nc4cc3Cl)n(Cc3cc(F)c(F)cc3F)c2=O)n1 — patients with adverse event (human, severe renal impairment; oral, 375 mg, hypertriglyceridaemia TEAE, Mild severity): 0%
O=C(c1ccc2[nH]ccc2c1)N1CCC2(CCCN(CCc3ccccc3)C2)C1 (stereo not shown) — remaining activity (Lassa mammarenavirus; viral replication; Huh-7; 10 µM, 72 h): 2%
Clc1ccccc1C1(c2ccnc(-c3ccccc3)n2)CCNCC1 — maximum response (SARS-CoV-2; cytopathic effect; USA_WA1/2020; round 1, 5-point): 96.2%

Repeated from above:
Nc1ncnc2c([C@@H]3N[C@H](CO)[C@@H](O)[C@H]3O)c[nH]c12 — inhibition (Middle East respiratory syndrome-related coronavirus; viral replication; Vero C1008, Jordan N3; 25 µM): 31.4%
